Results gathered from unrelated publications.
Compare with care: the assays were run in different laboratories. “And” joins repeats or separate records; there may be more than shown.
Target: Serine/threonine-protein kinase PAK 6 (PAK6, Homo sapiens, UniProt Q9NQU5)

SMILES = CN1CCN(Cc2ccc(-c3ccc(CO[C@H]4CCC[C@@H]4NC(=O)c4cc(-c5cnn(C)c5)cnc4N)cc3)cc2)CC1; assay = enzyme activity, inhibitor; setting = 0.1 µM; measurement = inhibition; result = 8%
SMILES = Nc1ncc2c(n1)-c1c([nH]c3ccc(C4=CCOCC4)cc13)CCC2; assay = binding, competition with immobilised ligand; setting = 1 µM; measurement = remaining binding; result = 60%
SMILES = Cc1ccc(-c2c(/C=C(\C#N)C(=O)NC(C)C)n(CCCO)c3ncnc(N)c23)cc1; assay = cell-free assay, competition with immobilised ligand; setting = 1 µM; measurement = remaining binding; result = 100%
SMILES = CNC(=O)C[C@H](Cc1ccc(C#N)cc1)NC(=O)c1cc(-c2ccc(CN[C@H](C)c3ccc(C)cc3)o2)ccc1Cl; assay = enzyme activity, inhibitor; setting = 1 µM; measurement = activity vs control; result = 96%
SMILES = COc1cc(Nc2nc(C)cc(-c3cnn4nc(OC)ccc34)n2)cc(C(F)(F)F)c1; assay = inhibitor; setting = 1 µM; scale = relative to: control; measurement = remaining activity; result = 82%
SMILES = Cc1cccc(O[C@H]2CCC[C@@H](C(C)CNCc3ccncc3)C2)c1 (relative stereo); assay = enzyme activity, inhibitor; setting = 10 µM; measurement = inhibition; result = -8%
SMILES = NC(=O)C[C@H]1CCc2sc3ncnc(O[C@H]4CC[C@H](N5CCOCC5)CC4)c3c21; assay = enzyme activity, inhibitor; setting = 10 µM; measurement = inhibition; result = 5%
SMILES = O=C=[N][Ru-4]123([n]4c5ccc(O)cc5c5c6c(c7cc(F)c[n+]1c7c54)C(=O)NC6=O)[S+]1CC[S+]2CC[S+]3CC1 (stereo not shown); assay = enzyme activity; setting = 100 nM, human enzyme, together with: 10 µM ATP; scale = relative to: untreated; measurement = remaining activity; result = 96%
SMILES = Cc1cccc(-c2ccc3nc(NC(=O)C4CCOCC4)nn3c2)c1; assay = enzyme activity, Dundee kinase panel; setting = 10 µM; measurement = remaining activity; result = 82%
SMILES = O=C(Cc1ccc(OCc2ccccc2)cc1)NC1(C(=O)O)CCN(C(=O)c2ccc(-c3cccc(Cl)c3)cc2)CC1; assay = enzyme activity, inhibitor; setting = 10 µM; measurement = activity vs control; result = 110%
SMILES = COc1c(Cl)cccc1Nc1c(-c2ccncc2C#C[C@@]2(C)CCCN2C(=O)/C=C/CN(C)C)[nH]c2c1C(=O)NCC2; assay = cell-free assay, competition with immobilised ligand; setting = 3 µM; measurement = remaining binding; result = 74%
SMILES = C=CC(=O)N1Cc2nc(-c3cc(-c4cc(Cl)cnc4Cl)c(F)cc3F)n(-c3ccncn3)c2C1; assay = cell-free assay, inhibitor; setting = 1 µM; measurement = inhibition; result = 5.1%
SMILES = Nc1nc(Nc2ccccc2)sc1C(=O)c1ccccc1; assay = enzyme activity, inhibitor; setting = 10 µM; measurement = remaining activity; result = 52%
SMILES = C=CC(=O)N1CCc2ccc(-n3c(=O)ccc4cnc5ccc(-c6cnn(C)c6)cc5c43)cc21; assay = KINOMEscan; setting = 1 µM; scale = relative to: DMSO control; measurement = remaining binding; result = 100%
SMILES = Cc1cnc2nc1Nc1cccc(c1)COC/C=C/COCc1cc(ccc1OCCN1CCOCC1)N2; assay = binding; setting = 0.1 µM; measurement = remaining binding; result = 84%
SMILES = COCC12C(=O)NC3C4(C(OC)CC1O)C1CC5(O)C(OC)C(O)C(OC(C)=O)(C1C5OC(=O)c1ccccc1)C3(O)C(OC)C24 (stereo not shown); assay = kinase activity, inhibitor, ProQinase kinase profiling; setting = 25 µM; scale = relative to: control; measurement = remaining activity; result = 91% and 97%
SMILES = CN1CC[C@@H](COc2cnc(C#N)cc2-c2ccn3nc(NC(=O)C4CC4)cc3c2)C1; assay = inhibitor, KinaseProfiler panel; setting = 1 µM; measurement = inhibition; result = 11%
SMILES = Cc1ccc(C)c(-c2ccc3nc(NC(=O)C4CCCCC4)nn3c2)c1; assay = enzyme activity, Dundee kinase panel; setting = 10 µM; measurement = remaining activity; result = 83%
SMILES = C=CC(=O)Nc1cccc(-c2cnc3[nH]cc(C(=O)NC(C)(C)C)c3n2)c1; assay = kinase activity; setting = 0.1 µM; measurement = inhibition; result = 4% and 2%

Excerpt of the above:
SMILES = O=C(Cc1ccc(OCc2ccccc2)cc1)NC1(C(=O)O)CCN(C(=O)c2ccc(-c3cccc(Cl)c3)cc2)CC1; assay = enzyme activity, inhibitor; setting = 10 µM; measurement = activity vs control; result = 110%
SMILES = C=CC(=O)Nc1cccc(-c2cnc3[nH]cc(C(=O)NC(C)(C)C)c3n2)c1; assay = kinase activity; setting = 0.1 µM; measurement = inhibition; result = 4% and 2%
